Experimental data collected from several papers.
Numbered parts are unrelated; each lists some results of a single study.

Block 1
Target: RNA binding protein fox-1 homolog 2, RRM domain, GST-SBP tag (RBFOX2, Homo sapiens, UniProt O43251-10, residues 100-194)
Method: RNA Bind-n-Seq
Form: RNA
Matrix: in vitro
Tested at: 365 nM
Setting: natural RNA segment, single round, ends assumed
Relative to: no-protein control
Direction: higher = stronger binding
Residues (chain): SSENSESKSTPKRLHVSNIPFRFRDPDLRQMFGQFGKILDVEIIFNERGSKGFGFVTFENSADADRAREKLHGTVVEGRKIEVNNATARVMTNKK
Sequence | RBNS enrichment (R)
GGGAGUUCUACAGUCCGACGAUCGCCAGCUGGGAGCACUGGUGUGAACUCACCCUGGGAGCCAGUCCUCCACUCGACCCAGAAUGGAGCCUGCUCUCCGCGCCUACCCUUCCCGCCUCCCUCUCAGAGGCCUGUGGAAUUCUCGGGUGCCAA | 0.288
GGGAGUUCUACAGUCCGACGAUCAGUUGGCCAUCCCAAAUUUCAUCGGUCCAUAGACACAAGCACAGAGCAAGAAACAAGGGCCUUAGAUGUGCCACGAAGGGCCCUUUGGUGGGCUGUGUGACAGUCGCGUGUGGAAUUCUCGGGUGCCAA | 0.439
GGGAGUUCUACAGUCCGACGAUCUUUCUCAUUUCCUGUAGAGAGAGAAUACCACUAACAAACAAACAAAAACUUUAGUGCCAAAAUAGUGGAACUAUUUUGUCAUCUUUUGAGAAAAAAAUAUACAAAGAAGUUGGAAUUCUCGGGUGCCAA | 0.578
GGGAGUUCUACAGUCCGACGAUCAAGUCACUUCCAGUGUUGGCUGUGUGACAGAAUCUUGUAUUUGGGCCAAGGUGUUUCCAUUUCUCAAUCAGUGCAGUGAUACAUGUACUCCAGAGGGACAGGGUGGACCCUGGAAUUCUCGGGUGCCAA | 0.415
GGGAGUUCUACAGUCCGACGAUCAGUGGUUAAUGCUUCCUUUAAAAAUAAUUGAGUCAUCCAUUCACUCUUUUUCAGUUUUAUCUGUCAAUAGUAGCUACAUUUUUAAUGGGAGCACCUUUUAUCCCAAAGUGUGGAAUUCUCGGGUGCCAA | 0.335
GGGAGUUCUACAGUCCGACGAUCGGAAAGGGAUUUUAUGGUUGGGGGUUAGUCCAACAAGAGGGACAGUGUUAAUGCUUCUGAAGCAUCAGGAAGGUUGAAAGCCACUGCUCUAGAGCCAAGUGAGUGCAUGUUGGAAUUCUCGGGUGCCAA | 12.5
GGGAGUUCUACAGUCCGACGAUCUUGUCUCUGUUCUGUUUAAACUUAUGUAGAUUAUUAUAAAUUGAUGUAAACCAUGUGAGAGGGAAAUGUUAAUAAAAAAAUUGCAAAGCCUCAACAUUUGCACAAAACUCUGGAAUUCUCGGGUGCCAA | 0.783
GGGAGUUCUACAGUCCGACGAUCGUCUGCGUGGGCUUUCUGUCUCUCAGCUCCCUUUCCCAGCCCACAGGGACAGAAGUACCAUCCACUUUCAAGUCCAGCUCCUUCCUAAGAGAUUCUUCCACCUUACUCUGUGGAAUUCUCGGGUGCCAA | 0.505
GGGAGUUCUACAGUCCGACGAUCAGCUUAUGAUAUCCAACAUUAUUAUAGUUGAUGAGUUAGUAAAUUCCAAAAAAAAAAGAUGAUUUUAUAUGUAUGACAUAAAAAAAAUCUUUGUAAAGUGCGCAAGUGCAUGGAAUUCUCGGGUGCCAA | 1.21
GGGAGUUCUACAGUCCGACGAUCUGGAACCAACAAGUUGAGUGCAUCCCUGUUGGGUGUUUUGUGUUGAGACUGGCUGAAAUGAGGAGACUUUGACCAUGUGACGUGUCAACAGACUCAAGGAGACAACCACCUGGAAUUCUCGGGUGCCAA | 1.64
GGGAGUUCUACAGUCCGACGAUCGUGAUGCCCUCCUGGGCCCUUAGGCAGAGCCUGGUCCAUUGUACCAGGCAGCCUAGCCCAGCCCAGGGCACAUGGCAAGAGGGACUGGACCCACCUUUGGGUGAUGGGUGUGGAAUUCUCGGGUGCCAA | 0.297
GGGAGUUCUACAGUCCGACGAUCUGGGUACUGGAUAGGAACACUGAGAAAGCAAAGCCAAUAGCCGUGAGGACGAGGAAGUUUCUGCCACUGCUUGCAGCUUUUCUGUGUGCUUUGGACUUGCUUUAGGAGGGUGGAAUUCUCGGGUGCCAA | 0.532

Block 2
Target: Centromere-binding protein 1, full length, His-tagged (CBF1, Saccharomyces cerevisiae, UniProt P17106, residues 1-351)
Chain of UniProt P17106 (whole entry, looked up): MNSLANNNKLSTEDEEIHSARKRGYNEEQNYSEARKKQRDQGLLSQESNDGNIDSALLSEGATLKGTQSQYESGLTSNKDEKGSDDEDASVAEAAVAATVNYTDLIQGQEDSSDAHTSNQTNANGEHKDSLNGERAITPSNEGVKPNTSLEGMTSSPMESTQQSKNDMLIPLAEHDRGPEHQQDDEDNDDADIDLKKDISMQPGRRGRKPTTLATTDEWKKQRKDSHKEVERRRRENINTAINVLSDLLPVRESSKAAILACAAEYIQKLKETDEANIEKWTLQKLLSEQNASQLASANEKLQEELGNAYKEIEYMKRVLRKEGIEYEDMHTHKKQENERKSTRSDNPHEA
Method: competition protein-binding microarray
Form: double-stranded DNA, one strand shown
Matrix: in vitro
Tested at: 2 µM
Setting: whole 60-bp probe, lowest competitor level
Added: Pho4 competitor, 0.05 µM
Direction: higher = stronger binding
Sequence | fluorescence intensity [a.u.]
AAACCAGACAAGAGTCAGGTGACGCTGCAGATGAAAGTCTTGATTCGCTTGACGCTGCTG | 1200
TCGCAGATGCCATATCCCGTGCCAGATATACTATAAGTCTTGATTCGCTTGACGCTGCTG | 242
CGTCCTAGTGATTGTAACGTGGGTGCCATGAGGAAGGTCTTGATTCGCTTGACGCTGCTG | 109
CATACCCAACCTTGAAGGGTGGGTGAAGATATTTGTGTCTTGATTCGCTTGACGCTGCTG | 59.1
CAACAAGGAGGATGGCATGTGGATACTACTTTCTTGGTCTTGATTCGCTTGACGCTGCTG | 90.1
CTGTGCCACCATTTGCACGTTGGCATCCGCGTCCTTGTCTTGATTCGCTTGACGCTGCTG | 86.4
CTTCTGTAAATTTGCACCGTGGGTGGACGCGCCCCGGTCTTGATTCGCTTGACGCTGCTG | 72.8
CTTTCCCGATCTTGACTGGTGGGTGTAGCACATTTGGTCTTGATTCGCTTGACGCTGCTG | 73.3
CAGAAGCCAAATTGGCGCGTGAGTCTGAGCTGCCTTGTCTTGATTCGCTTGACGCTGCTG | 68.2
GGCAATTGCAAGCCCGTCGTGCTTTTGGGGTGATATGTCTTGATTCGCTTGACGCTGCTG | 99.6
CTATCGGCCGCCACTGTCGTGTCTGAGTAGACGGGAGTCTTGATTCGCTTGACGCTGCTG | 67
TCTGTATTCCCCAGAGTTGTGACGAATAACTGGTGAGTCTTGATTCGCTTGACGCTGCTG | 80.6
CAGTCCGCCTCCCGTCACGTGATGGAGTAAGAAATTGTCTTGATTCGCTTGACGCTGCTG | 12200
GTCTTGTCTCATTGTGCGGTGGGTGTCCCCACTTCAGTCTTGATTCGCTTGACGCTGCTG | 82.6
GAAACGTCGGGTAGTTTCGTGCCGACTTAAGTGCCTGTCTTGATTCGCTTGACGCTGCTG | 55.1
AATGCACTTGATTTGCACGTGGGACCTGGGCGGCTAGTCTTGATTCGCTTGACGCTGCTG | 695
TGTAACAAGGAACAACGCGTGCTAACAAGCGGTAATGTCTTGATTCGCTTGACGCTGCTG | 102
ACATTGGTCTGAAAACACGTGTAGTACTTTCTCCTTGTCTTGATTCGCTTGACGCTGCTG | 916
CTTCGTCTCTAACTAAACGTGCTAAAGTGTAAAACGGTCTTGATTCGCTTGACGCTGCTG | 128

Block 3
Target: Fragile X messenger ribonucleoprotein 1, C-terminal low-complexity region (Fmr1, Mus musculus, UniProt P35922)
Method: RNA Bind-n-Seq
Form: RNA
Matrix: in vitro
Tested at: 200 nM
Setting: whole 134-nt RNA, ends assumed
Added: 150 mM LiCl
Relative to: input library
Direction: higher = stronger binding
Each molecule: 7-deaza-guanosine replaces G
Sequence | log2 enrichment
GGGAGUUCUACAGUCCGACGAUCUCCUGUGCUACACAUCGUAUGUACCGAAUCGGGGAAAAAGGGGUUUUUGGGGUUUGGGGAAAGUAUUAUGUUACGCCGUUCGGAUCUGCAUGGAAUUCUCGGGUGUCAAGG | -1.45
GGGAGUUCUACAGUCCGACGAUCCCUCAAGUCCUGUGCUACACAUCGUAUGUACCGAAUCGGAAAGGUGGAAAGGAAAGUAUUAUGUUACGCCGUUCGGAUCUGCACUUCCAGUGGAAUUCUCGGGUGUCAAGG | 0.155
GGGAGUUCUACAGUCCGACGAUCACCAUGCAGGUGGGCAUCUUUGGGAAGUUGGGCAAGGGGGGGAUAGGGAGGGGGGUAACACUUUGGGAACAGGUGGUCCCAGGUCGUUUCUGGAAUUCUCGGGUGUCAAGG | 1.59
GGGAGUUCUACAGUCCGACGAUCUGGGAGGUGGAUUUUGUUUAUUUUUUUAGCUCAUUUCCAGGGGGGGGAAUUUUUUUUUAAUAUGUGUCAUGAAUAAAGUUGUUUUUGAAAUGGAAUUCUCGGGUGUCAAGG | 0.874
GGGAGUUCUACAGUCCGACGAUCUCCUGUGCUACACAUCGUAUGUACCGAAUCGGUUUUUUGGUUUUUUGGGGUUUUUUGGGAAAGUAUUAUGUUACGCCGUUCGGAUCUGCAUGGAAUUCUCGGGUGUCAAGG | -0.38
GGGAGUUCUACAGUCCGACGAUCCAAGUCCUGUGCUACACAUCGUAUGUACCGAAUCGGGAAAGGGAAAAAGGGAGGGAAAGUAUUAUGUUACGCCGUUCGGAUCUGCACUUCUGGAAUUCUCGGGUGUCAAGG | -0.261
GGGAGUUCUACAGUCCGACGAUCUGCUCUUCACCAAGGAGGACGAGCCUGGCCGCUGCGACGUCCUGAGGAACCCCCUCUACCUCCAGAGUGUGAAGCUGCAGGAAGGUAAGCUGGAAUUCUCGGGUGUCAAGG | -0.0882
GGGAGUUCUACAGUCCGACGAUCUGUGACAGGAGAGCGCUUGAAGAGCAAUGUGACGAGGACCAUCAGACACCGAGGGAUGGAGAGACAUCCCACAGGGCCCAGAUUCAGCAGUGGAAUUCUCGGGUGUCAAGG | 0.868
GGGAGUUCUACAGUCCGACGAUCGCAGGAAGUAAAAACAAAUGGAAAUGCUUCGGAUAAAGGCAGGGGUGGGGGUUGCUAAGGAAAGGGUGGGAUGGGAGUGGGUAAAGAGUUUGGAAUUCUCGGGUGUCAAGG | 1.41
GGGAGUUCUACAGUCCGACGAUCCAAGUCCUGUGCUACACAUCGUAUGUACCGAAUCGGAAAAAAAGGUUUGGAAAGGAAAGUAUUAUGUUACGCCGUUCGGAUCUGCACUUCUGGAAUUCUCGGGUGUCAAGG | -2.08
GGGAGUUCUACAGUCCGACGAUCUACAGGAGCUUCCUGGGACUGACCUGCCUGAUGCAAAUUUCUACUCGGACGGAAGACUUCAUCAUUGACACCCUCGAGCUUCGAAGUGACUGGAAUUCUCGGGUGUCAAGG | -0.592

Block 4
Target: Histone acetyltransferase KAT6A, both winged helices, GST fusion (KAT6A, Homo sapiens, UniProt Q92794, residues 1-181)
Method: protein binding microarray
Form: double-stranded DNA, one strand shown
Matrix: in vitro
Tested at: not given
Setting: 8-mer, flanks averaged, mean of 2 arrays, mostly near background
Relative to: not given
Direction: higher = stronger binding
Target sequence (chain): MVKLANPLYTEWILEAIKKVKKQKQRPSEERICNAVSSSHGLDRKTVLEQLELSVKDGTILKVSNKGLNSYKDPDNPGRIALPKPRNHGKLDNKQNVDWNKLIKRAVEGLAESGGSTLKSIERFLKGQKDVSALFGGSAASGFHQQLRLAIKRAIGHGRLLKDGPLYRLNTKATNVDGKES
Sequence | E-score
GAATAATA | -0.0984
ATCGGCTA | 0.0652
TCGCGTCA | 0.179
AGTACCCA | -0.101
CCAACCGG | 0.0453
CGAAAGAG | -0.114
GCGCCGAA | 0.321
ACATGGAC | -0.0975
GATGGCAA | 0.00668
GGGATGAC | -0.139
CTATTGTA | 0.0962
CGCCGTCA | 0.28
CGTAAAAA | 0.0805
GAGGACCA | -0.146
AGTGACGA | -0.0751
CGTGAGTA | 0.0109
GTGCGCGA | 0.29
AATAGGCA | -0.0736
GGGGCAAC | -0.0962
GCTACAAA | -0.0981
GTAAAGGA | -0.123
GACAACCC | -0.0188
CAAATCTG | -0.0801
AATAGGAT | -0.0192
CTCCTCCC | -0.188

For quick reference, copied from above (block 4):
Sequence | E-score
GCGCCGAA | 0.321
GGGGCAAC | -0.0962
CGTGAGTA | 0.0109
CTATTGTA | 0.0962
CGAAAGAG | -0.114
TCGCGTCA | 0.179
